{"data": "Results of several laboratories", "note": "Numbered parts are unrelated; each lists some results of a single study."}
{"data": "Block 1", "target": "Interferon regulatory factor 5, full length, phosphomimetic (IRF5, Homo sapiens, UniProt Q13568-2, residues 1-514, K96S/S451D/S453D/S456D/S462D)", "method": "protein-binding microarray", "molecule type": "double-stranded DNA, one strand shown", "matrix": "in vitro", "tested at": "250 nM", "setting": "60-bp whole probe", "with": "salmon DNA 0.4 mg/ml", "reference": "random background probes", "direction": "higher = stronger binding", "shared flanks, not repeated": "GCCTAGCAC … GTCTTGATTCGCTTGACGCTGCTG"}
{"Oligonucleotide": "GACGGTATCCGGTATCGGGACGTGCTA", "log fluorescence [z-score]": 0.995}
{"Oligonucleotide": "CCCTATTTAAGGCTAGGCACGTGCTAG", "log fluorescence [z-score]": -0.178}
{"Oligonucleotide": "TCAATCATTGTTTTCAGACTGTGCTAG", "log fluorescence [z-score]": 0.915}
{"Oligonucleotide": "AGAAATTTCTTTCTAATTCAGTGCTAG", "log fluorescence [z-score]": 2.92}
{"Oligonucleotide": "TTAGATTTCAGTCTCGATTAGTGCTAG", "log fluorescence [z-score]": 2.98}
{"data": "Block 2", "target": "Sal-like protein 4, full length isoform A (SALL4, Homo sapiens, UniProt Q9UJQ4, residues 1-1053)", "method": "universal PBM", "molecule type": "double-stranded DNA, one strand shown", "matrix": "in vitro", "tested at": "600 nM", "setting": "8-mer, flanks averaged, mean of replicates", "direction": "higher = stronger binding", "chain of UniProt Q9UJQ4 (whole entry, looked up)": "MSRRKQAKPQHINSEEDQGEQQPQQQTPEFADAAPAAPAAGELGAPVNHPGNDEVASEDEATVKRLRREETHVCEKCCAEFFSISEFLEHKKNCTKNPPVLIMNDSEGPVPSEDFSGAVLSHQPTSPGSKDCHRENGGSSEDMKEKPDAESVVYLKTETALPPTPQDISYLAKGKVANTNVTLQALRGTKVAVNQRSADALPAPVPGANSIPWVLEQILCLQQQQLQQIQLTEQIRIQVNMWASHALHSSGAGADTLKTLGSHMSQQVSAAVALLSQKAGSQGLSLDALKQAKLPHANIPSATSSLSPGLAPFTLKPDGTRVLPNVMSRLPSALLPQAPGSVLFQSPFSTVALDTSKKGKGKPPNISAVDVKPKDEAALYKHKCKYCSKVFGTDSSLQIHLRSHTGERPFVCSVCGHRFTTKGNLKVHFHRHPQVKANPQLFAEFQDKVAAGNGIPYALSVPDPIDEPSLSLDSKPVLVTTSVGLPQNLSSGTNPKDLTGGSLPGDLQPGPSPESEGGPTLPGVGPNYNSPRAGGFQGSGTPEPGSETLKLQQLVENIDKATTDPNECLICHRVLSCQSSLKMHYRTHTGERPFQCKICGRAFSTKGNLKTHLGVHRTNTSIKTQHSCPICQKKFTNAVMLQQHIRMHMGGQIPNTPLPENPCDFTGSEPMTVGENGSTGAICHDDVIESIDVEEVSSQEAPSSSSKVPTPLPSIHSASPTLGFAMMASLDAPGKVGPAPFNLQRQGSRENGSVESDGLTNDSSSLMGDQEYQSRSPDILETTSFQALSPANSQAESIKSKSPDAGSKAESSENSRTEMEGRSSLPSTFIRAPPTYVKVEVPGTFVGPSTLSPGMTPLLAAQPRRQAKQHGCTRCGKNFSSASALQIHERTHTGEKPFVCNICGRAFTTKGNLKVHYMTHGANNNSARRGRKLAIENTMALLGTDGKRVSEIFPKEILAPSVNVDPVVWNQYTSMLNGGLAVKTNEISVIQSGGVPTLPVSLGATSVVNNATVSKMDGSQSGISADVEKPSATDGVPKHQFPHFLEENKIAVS"}
{"Oligonucleotide": "CATGTTTC", "E-score": 0.16}
{"Oligonucleotide": "CGTACGCC", "E-score": -0.176}
{"Oligonucleotide": "CAGCGCCA", "E-score": -0.274}
{"Oligonucleotide": "TCATCACA", "E-score": 0.0856}
{"Oligonucleotide": "AGCCTGTG", "E-score": -0.183}
{"Oligonucleotide": "GCGTCGAA", "E-score": -0.0834}
{"Oligonucleotide": "CATTGGGC", "E-score": -0.17}
{"Oligonucleotide": "CAAACGTA", "E-score": 0.0433}
{"data": "Block 3", "target": "Histone acetyltransferase KAT6A, winged helix 1, GST fusion (KAT6A, Homo sapiens, UniProt Q92794, residues 1-85)", "method": "protein binding microarray", "molecule type": "double-stranded DNA, one strand shown", "matrix": "in vitro", "tested at": "not given", "setting": "8-mer, flanks averaged, mean of 2 arrays, mostly near background", "reference": "not given", "direction": "higher = stronger binding", "Target sequence (chain)": "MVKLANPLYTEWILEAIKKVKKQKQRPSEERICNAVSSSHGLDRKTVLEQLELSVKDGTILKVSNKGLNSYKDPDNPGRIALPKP"}
{"Oligonucleotide": "CTAGAGAC", "E-score": -0.127}
{"Oligonucleotide": "ACCTGAAT", "E-score": -0.197}
{"Oligonucleotide": "CCTCTGCC", "E-score": -0.0729}
{"Oligonucleotide": "CCTAATTC", "E-score": -0.0977}
{"Oligonucleotide": "GCTCGTCC", "E-score": -0.12}
{"Oligonucleotide": "AGCACAGC", "E-score": -0.0719}
{"Oligonucleotide": "GGTATCGA", "E-score": 0.101}
{"data": "Single results of other studies"}
{"Substance": "PhoQ, residues 284 288 289 292 302 303 ALSMDL", "target": "PhoP, residues 12 14 15 18 19 LQHIR (Escherichia coli, UniProt P23836)", "assay": "Sort-seq, refers to: YFP reporter", "test system": "E. coli", "conditions": "PhoQ-PhoP variant library, with: 10 µM Mg2+", "scale": "reference: high Mg2+ state, higher = stronger signaling", "endpoint": "fold induction", "value": 10}
{"note": "Repeated from above (block 2):"}
{"Oligonucleotide": "CATGTTTC", "E-score": 0.16}
{"Oligonucleotide": "CAGCGCCA", "E-score": -0.274}
{"Oligonucleotide": "CGTACGCC", "E-score": -0.176}
